# Results collected from several papers.
# ± marks the error that the study gave.
SMILES,organism,test,system,conditions,how to read,quantity,result
CC[C@]1(O)C[C@H]2CN(CCc3c([nH]c4ccccc34)[C@@](C(=O)OC)(c3cc4c(cc3OC)N(C=O)[C@H]3[C@@](O)(C(=O)OC)[C@H](OC(C)=O)[C@]5(CC)C=CCN6CC[C@]43[C@@H]65)C2)C1,Artemia salina,,,24 h,,LC50,1.28 µg/mL
C/C(=N\C#N)N(C)Cc1ccc(Cl)nc1,Folsomia candida,"survival, OECD 232",LUFA 2.2 soil,28 days,,LC50,0.12 mg/kg dry soil
CCCCCCCCCCCCCN(C)C,Oncorhynchus mykiss,liver S9 substrate depletion,rainbow trout liver S9,tested individually,,intrinsic clearance in vitro,1.24 mL/h/mg S9 protein
CCCC(CCC)C(=O)Nc1ccccc1O,Artemia franciscana,,"larvae, artificial seawater","0.10 mM, 24 h, 0.17% DMSO",baseline: DMSO control,mortality,2.38 ± 2.38%
O=c1c2ccccc2[se]n1-c1ccccc1,Trypanosoma brucei,"cell viability, flow cytometry, PI",bloodstream form,24 h,,EC50,8.9 ± 0.7 µM
CCCCCCCCCN(C)C,Oncorhynchus mykiss,liver S9 substrate depletion,rainbow trout liver S9,tested individually,,intrinsic clearance in vivo,326 mL/h/g liver
CCOP(=S)(OCC)Oc1nc(Cl)c(Cl)cc1Cl,Daphnia magna,,,48 h,,LC50,0.0029 µM
Clc1ccc(Cn2c(-c3ccc(Cl)cc3)nc3ccccc32)cc1,Artemia salina,,,24 h,,LC50,21.9 µg/mL
CNC(=O)c1cc(Cl)cc(C)c1NC(=O)c1cc(Br)nn1-c1ncccc1Cl,Apis mellifera,acute contact toxicity,female worker bees,"topical, 0.2 µg/bee, 48 h, added: propiconazole 10 µg/bee 1 h before",,mortality,69 ± 13%
O=S1OCC2C(CO1)C1(Cl)C(Cl)=C(Cl)C2(Cl)C1(Cl)Cl (centres unmarked),Daphnia magna,,neonates under 24 h,48 h,,LC50,4.64 µM
Oc1ccc(Cn2c(-c3ccc(O)cc3)nc3ccccc32)cc1,Artemia salina,,,24 h,,LC50,116 µg/mL
CCOP(=S)(OCC)Oc1ccc([N+](=O)[O-])cc1,Daphnia magna,,neonates under 24 h old,48 h,,LC50,0.012 µM
CCCCCCCCCCCCN(C)C,Oncorhynchus mykiss,liver S9 substrate depletion,pooled rainbow trout liver S9,"pH 7.8, tested individually",,intrinsic clearance in vitro,1.9 mL/h/mg S9 protein
NC(Cc1cc(O)c(O)cc1O)C(=O)O (racemic),Trypanosoma brucei,"viability, flow cytometry",bloodstream form,24 h,,EC50,> 25 µM

# Some of these lines once more:
SMILES,organism,test,system,conditions,how to read,quantity,result
CCCCCCCCCN(C)C,Oncorhynchus mykiss,liver S9 substrate depletion,rainbow trout liver S9,tested individually,,intrinsic clearance in vivo,326 mL/h/g liver
CCOP(=S)(OCC)Oc1nc(Cl)c(Cl)cc1Cl,Daphnia magna,,,48 h,,LC50,0.0029 µM
